# Published values of several laboratories.
# Each line is one published result; not all experiments were run side by side. Several values in a cell are separate wells, animals, samples, runs or records. ± marks the error that the study gave.
Compound,target or system,assay,test system,setting,scale,quantity,result
Nc1nc(Nc2ccc3c(c2)CC[C@@H](N2CCCC2)CC3)nn1-c1cc2c(nn1)-c1ccccc1CCC2,HEK293T ATF4-FLuc reporter,"ATF4 reporter gene, activator, luciferase reporter",,,,EC50,2530 nM
CON=C(C(=O)NC1C(=O)N2C(C(=O)OCOC(=O)C(C)(C)C)=C(C)CSC12)c1csc(N)n1 (stereo not shown),THP-1,pyroptotic LDH release,,"2 µM, 40 min, added: LPS then nigericin",,inhibition,0.0765%
CCn1cc(-c2cc(Cn3ccoc3=N)cc3c2CCN([C@@H](C)c2cc(OC)ccn2)C3=O)c(C(F)(F)F)n1,NCI-H322,"cell growth, inhibitor",,120 h,,EC50,> 30000 nM
O=C(O)CCc1ccc(O)cc1,"coculture, Caco-2, THP-1",ELISA,,"250 ng/mL, 8 h, added: LPS, IFNγ, ATP",baseline: untreated control,IL-1β level,5.9 ± 2.2 fold change
Cc1ccc(C(=O)O)cc1,THP-1,pyroptotic LDH release,,"2 µM, 40 min, added: LPS then nigericin",,inhibition,17.1%
Cc1ccc(CNC(=O)Cn2cc(CSc3nc4ccccc4[nH]3)nn2)cc1,Caco-2,MTT,,62.5 ppm,,cytotoxicity,81%
Cc1c(C)c2c(c(C)c1O)CCC(C)(COc1ccc(CC3SC(=O)NC3=O)cc1)O2 (stereo not shown),HepG2,"MTT, refers to: MTT response",,"24 h, distribution mode 2",,point of departure,14.1 µM
C#Cc1cccc(Nc2ncnc3cc(OC)c(OCCCCCCC(=O)NO)cc23)c1,HEK293T ATF4-FLuc reporter,"ATF4 reporter gene, activator, luciferase reporter",,,,EC50,359 nM
OC[C@@H](O)[C@@H](O)CO,THP-1,pyroptotic LDH release,,"2 µM, 40 min, added: LPS then nigericin",,inhibition,30%
Cc1cnc2ccc3c(c2n1)N1CCC(O)N=C1N3C (stereo not shown),BALB/c 3T3,colony formation,,10 µM,,plating efficiency,0%
CSc1cc(Oc2ccnc3[nH]c(=O)cnc23)ccc1NC(=O)Nc1cc(C(C)(C)C)nn1-c1ccccc1,patient-derived cell clone B (sample A),"reverse phase protein array, refers to: Akt pSer473",human,"1 µM, 4 h",baseline: DMSO,phospho/total Akt ratio,0.35
Cn1cc(-c2ccc(-c3cncc(Cl)c3N3CCC4(CCNC4=O)CC3)cc2)cn1,COLO 205,"gene expression, microarray, refers to: BTG2 mRNA",,"concentration not given, 6 h",baseline: untreated cells,log2 fold change,3.71
CC(C)NCC(O)c1ccc(O)c(O)c1 (stereo not shown),mouse ventricular cardiomyocytes,,,"dose not given, 0.371 s",,sarcomere length,1.8 µm
COc1ccc(NC(=S)N/N=C/c2cccc3cc4ccccc4nc23)cc1,HeLa,PI flow cytometry,,"IC12.5, 48 h",,G2/M phase cells,11.9 ± 1.3%
CC(C)C[C@H](NC(=O)C[C@H](O)[C@H](CC(C)C)NC(=O)[C@H](Cc1c[nH]cn1)NC(=O)CNC(=O)[C@@H](NC(=O)[C@H](C)NC(=O)[C@H](Cc1c[nH]c2ccccc12)NC(=O)[C@H](CCC(N)=O)NC(=O)[C@@H](Cc1ccccc1)NC(=O)COCCOCCNC(=O)CCC(C(=O)O)N1CCN(CC(=O)O)CCN(CC(=O)O)CCN(CC(=O)O)CC1)C(C)C)C(N)=O (stereo partly shown) [lutetium-177 labelled],,,"female BALB/c nu/nu mice, skin","intravenous, 100 pmol, 24 h, added: PA 300 µg",,tissue uptake,0.05 ± 0.04 %ID/g
N#Cc1c(N)nc(SCc2csc(-c3ccc(Cl)cc3)n2)c(C#N)c1-c1ccc(OCCO)cc1,HEK293T ATF4-FLuc reporter,"ATF4 reporter gene, activator, luciferase reporter",,,,EC50,332 nM
C[C@H](NC(=O)C(=O)Nc1ccccc1C(C)(C)C)C(=O)N[C@@H](CC(=O)O)C(=O)COc1c(F)c(F)cc(F)c1F,"THP-1 wild type, LPS-primed",inhibitor,,"25 µM, 2 h, added: nigericin 6.25 µM",,LDH release,25.4% and 17.5% and 19.4%
O=C(O)c1cc(O)c(O)c(O)c1,"coculture, Caco-2, THP-1",ELISA,,"100 ng/mL, 8 h, added: LPS, IFNγ, ATP",baseline: untreated control,IL-1β level,8.9 ± 1.3 fold change
COC1=C2C[C@@H](C)C[C@H](OC)[C@H](O)[C@@H](C)/C=C(\C)[C@H](OC(N)=O)[C@@H](OC)/C=C\C=C(/C)C(=O)NC(=CC1=O)C2=O,human iPSC cardiomyocytes,plate-normalised,,"concentration not given, hit retest","baseline: vehicle controls, SDs below control",MyBP-C level change,7.91 SD
OC(CCN1CCCCC1)(c1ccccc1)C1CC2C=CC1C2 (stereo not shown),,resting-state EEG,healthy elderly humans,"oral, 2 mg, eyes open, LS mean",,EEG Beta1-power Pz-O1,3.8 µV²
COc1cnc2cccc(N3CCc4c(cc(Cn5ccnc5C)cc4-c4cn(C)nc4C(F)(F)F)C3=O)c2c1,HCC38,"cell growth, inhibitor",,120 h,,EC50,> 30000 nM
CC(=O)NC[C@H]1CN(c2ccc(-c3ccc(CNCc4cnn[nH]4)cc3)c(F)c2)C(=O)O1,THP-1,pyroptotic LDH release,,"2 µM, 40 min, added: LPS then nigericin",,inhibition,34.4%
C=CC1=C(C)c2cc3[n-]c(cc4nc(cc5[n-]c(cc1n2)c(C)c5C=C)C(C)=C4CCC(=O)O)c(CCC(=O)O)c3C.[Zn+2],SH-SY5Y,"RNA-seq, refers to: IL4R mRNA",,"5 µM, 5 h",baseline: untreated cells,fold change,2.37
CCOc1ccc(-c2nc3cc(-c4nc5cc(N6CCN(C)CC6)ccc5[nH]4)ccc3[nH]2)cc1OCC,OVCAR-8,SRB,,"10 µM, 48 h",,growth percent,14.8%
Cc1n[nH]c2nc(-c3ccc(Cl)cc3)c3c(NC(=O)c4ccccc4)nnc-3n12,RXF 393,SRB,,"10 µM, NCI60 single-dose screen",baseline: untreated,cell growth,105%
O=c1[nH]nc(OCCCc2ccc(Cl)cc2)c(NCc2cccnc2)c1Br,HEK293T ATF4-FLuc reporter,"ISR reporter gene, activator",,8 h,,EC50,5000 nM
O=C(O)Cc1ccc(O)cc1,Caco-2/THP-1 co-culture,,,"0.25 µg/mL, added: LPS 250 ng/mL",,kynurenine level,91.2 ± 3.5 % change
CC(C)C[C@H](NC(=O)[C@H](Cc1ccccc1)NC(=O)c1cnccn1)B(O)O,HEK293T ATF4-FLuc reporter,"ATF4 reporter gene, activator, luciferase reporter",,,,EC50,> 9960 nM
Nc1cccc2c1C(=O)N(C1CCC(=O)NC1=O)C2=O (stereo not shown),RPMI-8226,"flow cytometry, refers to: CD64",,concentration not given,baseline: comparator compound alone,surface marker level,41.3%
Cc1nn(-c2nc3c(F)cc(F)cc3s2)c(O)c1C(c1ccc(C(F)(F)F)cc1)c1c(C)nn(-c2nc3c(F)cc(F)cc3s2)c1O,THP1-Dual,western blot,,"10 µM, dose series, added: HT-DNA",baseline: DMSO,phospho-TBK1 to TBK1 ratio,1.04 and 0.821 and 0.936
CC(=O)Oc1c(C)c(C)c2c(c1C)CCC(C)(CCC[C@H](C)CCC[C@H](C)CCCC(C)C)O2 (stereo partly shown),THP-1,pyroptotic LDH release,,"2 µM, 40 min, added: LPS then nigericin",,inhibition,4.01%
O=C(O)CCc1cccc(O)c1,Caco-2/THP-1 co-culture,,,"concentration not given, added: LPS 50 ng/mL",,kynurenine level,164 ± 15.2 % change
CC(C)c1nc(CN(C)C(=O)N[C@@H](CCN2CCOCC2)C(=O)N[C@H](CC[C@H](Cc2ccccc2)NC(=O)OCc2cncs2)Cc2ccccc2)cs1,HEK293T ATF4-FLuc reporter,"ATF4 reporter gene, activator, luciferase reporter",,,,EC50,> 9960 nM
CC(=O)OCc1ccccc1,THP-1,pyroptotic LDH release,,"2 µM, 40 min, added: LPS then nigericin",,inhibition,5.79%
COC(=O)CC1CCN(C(=O)c2cc(-c3cccs3)nn2-c2ccccc2)CC1,human monocytes,phagocytosis of anti-D RBCs,,"5 µM, lab-synthesized sample",,inhibition,45.2 ± 16.4%
Nc1ccncc1N,THP-1,pyroptotic LDH release,,"2 µM, 40 min, added: LPS then nigericin",,inhibition,7.32%
COc1cc(-c2oc3cc(O)cc(O)c3c(=O)c2O)ccc1O,Caco-2/THP-1 co-culture,TEER,,"concentration not given, added: LPS 50 ng/mL",baseline: control,transepithelial electrical resistance,82.1 ± 5.1%
CCn1cc(-c2cc(Cn3ccnc3)cc3c2CCN([C@H](c2cc(OC)ccn2)C2CC2)C3=O)c(C(F)(F)F)n1,HEP3B217,cell growth,,120 h,,EC50,2010 nM
COc1c(O)c(C)cc2c1C(=O)c1c(O)cccc1C2=O,HK-2 co-cultured with HepaRG,MTT,,"133.33 µM, 48 h",baseline: untreated control,viability,63.7 ± 8.09%
OC[C@H]1O[C@@H](Oc2ccc(O)cc2)[C@H](O)[C@@H](O)[C@@H]1O,THP-1,pyroptotic LDH release,,"2 µM, 40 min, added: LPS then nigericin",,inhibition,-24.7%
O=C(/C=C/C=C/C=C/C1CCCCC1)NC1=C[C@@](O)(/C=C/C=C/C=C/C(=O)NC2=C(O)CCC2=O)[C@@H]2O[C@@H]2C1=O,mel285,"cell growth, inhibitor, CellTiter-Glo luminescence",,78 h,baseline: day 0 cell count,GI50,19700 nM
Cn1cc(Nc2nccc(-c3ccc4c(c3)CN(C3COC3)CC[C@H]4NC(=O)c3cn(C(C)(C)C)nn3)n2)cn1,mouse splenic B cells,refers to: IL-8 signalling,,"30 mg/kg, IgD-activated in vivo","baseline: vehicle, direction not given",pathway activation z-score,3.27
C=CCN1CCN(CC(C)(C)COC(=O)C2=C(C)NC(C)=C(C(=O)OC)C2c2cccc([N+](=O)[O-])c2)CC1 (stereo not shown),HEK293T ATF4-FLuc reporter,"ATF4 reporter gene, activator, luciferase reporter",,,,EC50,> 9960 nM
CCN(CCO)CCCC(C)Nc1ccnc2cc(Cl)ccc12 (stereo not shown),human PBMC,"ISG expression, qRT-PCR, refers to: 5-ISG panel",,"1000 nM, added: ssRNA",,inhibition,18 ± 4%
Nc1nc(Cl)nc2c1ncn2[C@@H]1O[C@H](CO)[C@@H](O)[C@H]1O,HEK293T ATF4-FLuc reporter,"ATF4 reporter gene, activator, luciferase reporter",,,,EC50,955 nM
Cc1cc(O)c2c(c1)C(=O)c1cc(O)cc(O)c1C2=O,HK-2 co-cultured with HepaRG,MTT,,"133.33 µM, 48 h",baseline: untreated control,viability,64.7 ± 6.11%
